Assay results pooled from the literature.
Numbered parts are unrelated; each lists some results of a single study.

Sample 1 — method: RNA Bind-n-Seq; molecule type: RNA; sample: in vitro; tested at: 365 nM; baseline: no-protein control; direction: higher = stronger binding
Target: RNA binding protein fox-1 homolog 2, RRM domain, GST-SBP tag (RBFOX2, Homo sapiens, UniProt O43251-10, residues 100-194)
Setting: natural RNA segment, single round, ends assumed
Target sequence (chain): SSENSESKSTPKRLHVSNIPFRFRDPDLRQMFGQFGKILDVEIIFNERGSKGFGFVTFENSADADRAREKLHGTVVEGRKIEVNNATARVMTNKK
Sequence | RBNS enrichment (R)
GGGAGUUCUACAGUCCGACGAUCUCACUCUGCCAGAGUAUGACUUUUUACAGAUUAUUAAAUAAAGCUGCAUAUGUCUCAUUGUUACCUGUUGCUGGUGUUAUUUCUUUCAAGCCAUUCACUGGGGUUCAGGGUGGAAUUCUCGGGUGCCAA | 0.448
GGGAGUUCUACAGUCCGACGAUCUGUGCCAAGCCUUGUCCACUGGAAUGCAUCCAGAACAGCAGCACCAUCUAGCGGCAGGUUGAGGAAAACUAUGGUCUCUGCUAGGGAAAACCUUAUCCAACUCUUCAAGUUGGAAUUCUCGGGUGCCAA | 0.323
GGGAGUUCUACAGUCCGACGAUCGGACCUGAGGAUUGAGGUCCUUGCUUUCUCCUGGUGGCCAUGGGACCUCAGAGGCAUUUUUGCCAAGAGGGCAGAACCUGACUGAGCCCUGGAUAUCCCCUGUCUUAGUGUGGAAUUCUCGGGUGCCAA | 0.186
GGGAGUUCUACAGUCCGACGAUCACACCCAGAAAGGGGUGUCCUGACACCCCACCCAGGCCUUGAGGACGGUGCGGUAAUGACUGCCCAGGCUGCCUGAGUCUCUGACCCUCUGAGGAGUUCGAGCAGGGCAGUGGAAUUCUCGGGUGCCAA | 0.274
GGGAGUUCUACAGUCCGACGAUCGAGGCUUCUAAUUAGCUGGAAAAGAGUAUUUUUCUAAUACGUUGCAAGGAUUAGCCAAAUCUUCUUAUUGAAGAAAGAAGAAAAGUGAAGAGUGGUUACCUAUACCUAGCUGGAAUUCUCGGGUGCCAA | 0.619
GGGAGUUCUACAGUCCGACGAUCUUUGCUGUUUUAGAAAGUGAUUCUACAAUCUCGGCUGUCAGGACAGCUGGGAUGCUUACUGUGAAAGGGUCUUGUGAGUGACUAAUGGAAUAUAUGGCUGUGAGAUUUUGUGGAAUUCUCGGGUGCCAA | 0.429
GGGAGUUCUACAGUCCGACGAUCGGACGUUAGGCAGAGAGCUCAGAUGGCCCUUUUAAGGGGGCUCCAAGAACCAACAUCACUGCUCUUUUAGAUAAACCUCUGCCCUCCACUCCUUGCUUGAGUGGGUUAAAUGGAAUUCUCGGGUGCCAA | 0.395
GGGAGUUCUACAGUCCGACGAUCCCCGGCCCACGGCACAGCAAUCCCCUGCGCGUGGAUUUCACCUCACCCUUUGUACCAGAUGUUGAGUGACCAGCUCUGUGGCCCUGUGUCGUCAGAGGCUUGUGAUUAACUGGAAUUCUCGGGUGCCAA | 0.379
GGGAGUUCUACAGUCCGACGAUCUCUAAGCCUACAAGUACUACUUGCUAUAGCUCAGACUUGUCUACAGUUCUUUGUAUGAUGCACUUUGGACCCACCCUCUCCUCAUGUCACUACUUUGCACACUUCCUCCAUGGAAUUCUCGGGUGCCAA | 0.551
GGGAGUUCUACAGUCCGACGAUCUGUCAGCUCAUUUCUAAGAUGCCUUCAGAGAUCUGAGACAUGACAUUAAGAAUGGAGUAGUAACUAGAGUGUUAUCUCAGUGCCUGUCUCAUAGUAUAGAAAUGACAAGCUGGAAUUCUCGGGUGCCAA | 2.03
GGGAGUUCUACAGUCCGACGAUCUUAAAUGAAAAUUCUUCAGAAAAAGUUUGAUAAAUUGAAUUGUGGUUAUGAAACUAAUUUGCAUUUUUAUUUGCUUAAGAAAGAAAGCUGUGAUAGAUUCCAGAUAUGCUUGGAAUUCUCGGGUGCCAA | 3.89
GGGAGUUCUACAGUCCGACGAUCCCAAUUGUGGACUUAAAUUAGUCAAAUUGAGAGUUACUGAGUCCAUUCAGAUCUCCAGUAGGGUUUUGUAUCUAAUGUAUUUGGCCACCAGUUUUACAUGUAGGUCAUGAUGGAAUUCUCGGGUGCCAA | 0.491

Sample 2 — method: protein-binding microarray; molecule type: double-stranded DNA, one strand shown; sample: in vitro; tested at: not given; direction: higher = stronger binding
Target: TATA-box-binding protein 1 (TBP1, Arabidopsis thaliana, UniProt P28147, residues 1-200, full length assumed)
Setting: k-mer, scored over probes, only values ≥0.25
Target sequence (chain): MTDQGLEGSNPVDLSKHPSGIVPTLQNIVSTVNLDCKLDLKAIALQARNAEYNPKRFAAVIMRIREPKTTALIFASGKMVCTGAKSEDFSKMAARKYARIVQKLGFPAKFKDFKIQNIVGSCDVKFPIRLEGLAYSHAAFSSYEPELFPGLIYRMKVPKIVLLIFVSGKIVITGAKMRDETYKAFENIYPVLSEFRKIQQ
Sequence | E-score
CATTATA | 0.415
GGTATAC | 0.284
ATATCTA | 0.349
ATATGGA | 0.33
AGTAAAT | 0.291
TACTATA | 0.378
CTATTTA | 0.407
AAGTAAA | 0.31
ACCTATA | 0.309
TCAATAA | 0.304
ATAACAA | 0.279
TAAAATA | 0.387
TATCTAA | 0.325
GTTCTTA | 0.252
ATAAGGC | 0.255
AGTTTAA | 0.337

Sample 3 — method: protein binding microarray; molecule type: double-stranded DNA, one strand shown; sample: in vitro; tested at: not given; baseline: not given; direction: higher = stronger binding
Target: Histone acetyltransferase KAT6A, winged helix 1, GST fusion (KAT6A, Homo sapiens, UniProt Q92794, residues 1-85)
Setting: 8-mer, flanks averaged, mean of 2 arrays, mostly near background
Construct (chain): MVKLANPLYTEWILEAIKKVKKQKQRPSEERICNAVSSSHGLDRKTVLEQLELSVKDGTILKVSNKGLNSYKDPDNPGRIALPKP
Sequence | E-score
GGCGGCTA | 0.341
ACCTGGAT | -0.251
CGTGGTTA | -0.0571
AGGGTCAG | -0.156
CAAGTTCA | -0.128
GCAGCTAC | -0.053
ACCGAACG | 0.0828
CCTAACCA | -0.179
AACGGTAG | 0.0593
ATATTGCC | 0.00629
GCCGACCC | 0.351
CGAGTCCG | 0.354
TCTCGAGA | -0.347
AGTCTTAA | -0.105
CACGCCTC | 0.0639
GACAGTTA | -0.019

Sample 4 — method: universal PBM; molecule type: double-stranded DNA, one strand shown; sample: in vitro; tested at: not given; direction: higher = stronger binding
Target: Sal-like protein 4, full length isoform B (SALL4, Homo sapiens, UniProt Q9UJQ4-2, residues 1-616)
Setting: 8-mer, flanks averaged, mean of replicates
Construct (chain): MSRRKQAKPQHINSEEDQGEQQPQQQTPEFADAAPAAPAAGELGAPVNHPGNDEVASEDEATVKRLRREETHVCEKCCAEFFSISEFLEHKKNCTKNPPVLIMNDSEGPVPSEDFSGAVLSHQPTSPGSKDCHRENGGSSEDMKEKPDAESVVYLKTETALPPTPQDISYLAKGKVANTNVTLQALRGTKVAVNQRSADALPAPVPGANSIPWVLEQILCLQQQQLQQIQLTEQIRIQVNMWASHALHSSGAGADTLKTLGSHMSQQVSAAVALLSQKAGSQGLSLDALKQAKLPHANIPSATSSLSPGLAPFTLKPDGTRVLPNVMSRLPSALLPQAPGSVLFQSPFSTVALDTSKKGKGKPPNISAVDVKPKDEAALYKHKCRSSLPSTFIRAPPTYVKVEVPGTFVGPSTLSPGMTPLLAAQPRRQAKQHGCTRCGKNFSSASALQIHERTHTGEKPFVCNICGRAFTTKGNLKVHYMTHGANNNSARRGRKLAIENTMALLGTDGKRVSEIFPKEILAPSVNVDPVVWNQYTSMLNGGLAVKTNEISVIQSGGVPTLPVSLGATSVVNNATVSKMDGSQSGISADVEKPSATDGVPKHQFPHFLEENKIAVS
Sequence | E-score
GACGACGA | -0.0221
CGGCCCAA | -0.309
TACAACAA | 0.278
GCAGAGAA | -0.0393
ACAGCGGA | -0.115
GACAGTGC | -0.094
AATTGAAT | 0.277
TCACGTCA | -0.0448
ATTCAATC | 0.216
AGGCACAG | -0.0363
CCATTAGA | -0.105
TGGGTTAA | 0.00991
CAAGATCA | -0.0358
AGAATGTG | -0.0287
ATCTCCAC | -0.0651
CATGGAGC | -0.188
CGACCGCC | -0.289
ACGCCGTA | 0.0165
CATTTGGG | -0.042

For quick reference, copied from above (sample 4):
Sequence | E-score
TGGGTTAA | 0.00991
AGAATGTG | -0.0287
CATGGAGC | -0.188
TACAACAA | 0.278
ATCTCCAC | -0.0651
CAAGATCA | -0.0358
ACAGCGGA | -0.115
